Results from different studies.
Genome polyprotein NS2B-NS3 protease: Genome polyprotein, NS2B-NS3 protease (dengue virus type 2, UniProt P29990)

Compound	target	assay	system	setting	scale	inhibition [%]
NC(=O)c1ccccc1NC(=O)c1cc(-c2ccccc2)n(-c2ccccc2)n1	Genome polyprotein NS2B-NS3 protease	reporter gene	HeLa	12.5 µM		36
O=C1c2sc(-c3ccc(N4CCC(F)C4)nc3F)nc2CCN1c1cccnc1 (stereo not drawn)	CCR2 (Homo sapiens, UniProt P41597)	ligand displacement, radioligand		1 µM		-7
CCCCCCCCCCCCCCCC(=O)N[C@@H](CCCCN)C(=O)N[C@@H](CCCCN)C(=O)N[C@@H](CO)C(=O)N[C@@H](CCCNC(=N)N)C(=O)N[C@@H](C)C(=O)N[C@@H](CC(C)C)C(=O)N[C@@H](Cc1ccccc1)C(N)=O	F2RL3 (Homo sapiens, UniProt Q96RI0)	platelet aggregation, ex vivo LTA	human	0.3 mg/kg, 14 days, with: AYPGKF 160 µM	reference: baseline	15
O=C(Nc1ccc(CNc2ncccn2)cc1)c1cc(-c2ccccc2)n(-c2ccccc2)n1	Genome polyprotein NS2B-NS3 protease	enzyme activity, fluorogenic AMC substrate		50 µM		53
C[Si](C)(C)C[C@@H](CN)CC(=O)O	ADORA2A (Homo sapiens, UniProt P29274)	ligand displacement, radioligand		75 µM		3
C/C=C/C(=O)Nc1ccc2nc(NCCCCCN(C)C)nc(NCCCCCCN(C)C)c2c1	KMT2A (Homo sapiens, UniProt Q03164)	enzyme activity, inhibitor, radiometric		50 µM		16
NC(=O)c1cccc(NC(=O)c2oncc2-c2ccccc2)c1	Genome polyprotein NS2B-NS3 protease	enzyme activity, fluorogenic AMC substrate		50 µM		25
O=C1c2sc(-c3ccc(N4CCC(CO)CC4)nc3F)nc2CCN1c1cccnc1	CNR2 (Homo sapiens, UniProt P34972)	ligand displacement, radioligand		1 µM		-13
CN(C)C/C=C/C(=O)Nc1ccc2nc(NCCCCCN(C)C)nc(NCCCCCCN(C)C)c2c1	PRMT9 (Homo sapiens, UniProt Q6P2P2)	enzyme activity, inhibitor, radiometric		10 µM		57

For quick reference, copied from above:
Compound	target	assay	system	setting	scale	inhibition [%]
CN(C)C/C=C/C(=O)Nc1ccc2nc(NCCCCCN(C)C)nc(NCCCCCCN(C)C)c2c1	PRMT9 (Homo sapiens, UniProt Q6P2P2)	enzyme activity, inhibitor, radiometric		10 µM		57
